Measured values gathered from unrelated publications.
Protocols differ between the studies behind these lines. Numbers after ± are the reported error. Non-standard residues stand in square brackets, D forms with d. Ends that are not written are not given here. No end group written: not given here. *: point of attachment.
FLRT3 LRR domain 29-386: FLRT3 LRR domain 29-386, N-linked glycosylation (Mus musculus, UniProt Q8BGT1)
IKBKG 2-419 C11A/C76A/C95A/C131A/C167A: IKBKG 2-419 C11A/C76A/C95A/C131A/C167A (Homo sapiens, UniProt Q9Y6K9)
B1: Adgrl3 199-495 D332A (Mus musculus, UniProt Q80TS3); sequence looked up; chain KVFLCPGLLKGVYQSEHLFESDHQSGAWCKDPLQASDKIYYMPWTPYRTDTLTEYSSKDDFIAGRPTTTYKLPHRVDGTGFVVYDGALFFNKERTRNIVKFDLRTRIKSGEAIIANANYHDTSPYRWGGKSDIALAVDENGLWVIYATEQNNGKIVISQLNPYTLRIEGTWDTAYDKRSASNAFMICGILYVVKSVYEDDDNEATGNKIDYIYNTDQSKDSLVDVPFPNSYQYIAAVDYNPRDNLLYVWNNYHVVKYSLDFGPLDSRSGPVHHGQVSYISPPIHLDSELERPPVRGI
B2: CPT1A 381-469 W452A (Rattus norvegicus, UniProt P32198); Cy3 label; sequence looked up; chain AALTAADRVPWAKCRQTYFARGKNKQSLDAVEKAAFFVTLDESEQGYREEDPEASIDSYAKSLLHGRCFDRAFDKSITFVVFKNSKIGI
B3: LPHN3 N-terminal half, OLF-RBL (Mus musculus); chain GKHNERHPALAAPLRHAERSPGGALPPRHLLQQPAAERSTAHRGQGPRGAARGVRGPGAPGAQIAAQAFSRAPIPMAVVRRELSCESYPIELRCPGTDVIMIESANYGRTDDKICDSDPAQMENIRCYLPDAYKIMSQRCNNRTQCAVVAGPDVFPDPCPGTYKYLEVQYECVPYKVEQKVFLCPGLLKGVYQSEHLFESDHQSGAWCKDPLQASDKIYYMPWTPYRTDTLTEYSSKDDFIAGRPTTTYKLPHRVDGTGFVVYDGALFFNKERTRNIVKFDLRTRIKSGEAIIANANYHDTSPYRWGGKSDIDLAVDENGLWVIYATEQNNGKIVISQLNPYTLRIEGTWDTAYDKRSASNAFMICGILYVVKSVYEDDDNEATGNKIDYIYNTDQSKDSLVDVPFPNSYQYIAAVDYNPRDNLLYVWNNYHVVKYSLDFGPLDSRSGPVHHGQVSYISPPIHLDSELERPPVRGISTTGSLGMGSTTTSTTLRTTTWNIGRSTTASLPGRRNRSTSTPSPAVEVL
B4: IGFL1 24-110 (Homo sapiens, UniProt Q6UW32); chain GAPVAPMTPYLMLCQPHKRCGDKFYDPLQHCCYDDAVVPLARTQTCGNCTFRVCFEQCCPWTFMVKLINQNCDSARTSDDRLCRSVS
B5: Scn2a 1080-1203 (UniProt P04775); CK2-phosphorylated; sequence looked up; chain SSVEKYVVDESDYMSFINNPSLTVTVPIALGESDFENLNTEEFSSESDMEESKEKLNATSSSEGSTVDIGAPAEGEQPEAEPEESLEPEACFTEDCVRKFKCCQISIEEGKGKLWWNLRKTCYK
B6: FLRT3 LRR domain 29-357 (Homo sapiens, UniProt Q9NZU0); sequence looked up; chain KSCPSVCRCDAGFIYCNDRFLTSIPTGIPEDATTLYLQNNQINNAGIPSDLKNLLKVERIYLYHNSLDEFPTNLPKYVKELHLQENNIRTITYDSLSKIPYLEELHLDDNSVSAVSIEEGAFRDSNYLRLLFLSRNHLSTIPWGLPRTIEELRLDDNRISTISSPSLQGLTSLKRLVLDGNLLNNHGLGDKVFFNLVNLTELSLVRNSLTAAPVNLPGTNLRKLYLQDNHINRVPPNAFSYLRQLYRLDMSNNNLSNLPQGIFDDLDNITQLILRNNPWYCGCKMKWVRDWLQSLPVKVNVRGLMCQAPEKVRGMAIKDLNAELFDCKD
B7: RSPO2 22-144 (Homo sapiens, UniProt Q6UXX9); two AlexaFluor488 labels; sequence looked up; chain QGNRWRRSKRASYVSNPICKGCLSCSKDNGCSRCQQKLFFFLRREGMRQYGECLHSCPSGYYGHRAPDMNRCARCRIENCDSCFSKDFCTKCKVGFYLHRGRCFDECPDGFAPLEETMECVEG

{FITC}-SARWRFPARPGTTGGGGGGGRRGLGGAPRQRVPALLLPPGY (KMT2A 4-43 C-A; N-terminal FITC; FITC = O=C1OC2(c3ccc(O)cc3Oc3cc(O)ccc32)c2ccc(NC(=S)*)cc21)  Kd (MEN1 (Homo sapiens, UniProt O00255-1); fluorescence polarisation; peptide): 0.76 nM
ARTK(Me3)QTARKSTGGKAY (histone H3 2-16 (UniProt P68431); not fully specified; K4me3; Me3 = Me3: trimethyl-lysine (trimethylated lysine))  Kd (KMT2A 1564-1628 V1617A (Homo sapiens, UniProt Q03164); ITC; peptide; pH 7.2, 25 °C, NaCl 50 mM): 52400 nM
MEDDAPMNLCNEQFEEIEDSPIDDNDNESFYNADGDVELEEEEVHE (spd-2 1-46 (Caenorhabditis elegans, UniProt P91870); sequence looked up)  Kd (zyg-1 cryptic polo box 338-564 (Caenorhabditis elegans, UniProt Q9GT24); MST): 420 nM
B1 (Adgrl3 199-495 D332A)  Kd (FLRT3 LRR domain 29-386; ITC; pH 7.0, 25 °C, NaCl 150 mM): 170 nM
PAKKSEELVAEAHNLSTLLENAIQDAVREQDQSFTALDWSWLQTE (IKBKB 701-745 C716S/T726A (Homo sapiens, UniProt O14920); sequence looked up)  Kd (IKBKG 2-419 C11A/C76A/C95A/C131A/C167A; competition with labelled peptide, fluorescence polarisation; pH 7.4): 6.9 nM
F9 activated FIXa (UniProt P00740)  Kd (rFVIIIFc Fc fusion (Homo sapiens); FXa generation rate; phospholipid vesicles; added: thrombin-activated rFVIIIFc): 5.5 nM
PPP1CB (Homo sapiens, UniProt P62140)  Kd (SHOC2 (Homo sapiens, UniProt Q9UQ13); BLI; steady state): 11000 nM
ARTKQTARKSTG (Histone H3.1 2-13 (Homo sapiens, UniProt P68431); sequence looked up)  Kd (CHD3 454-508 (Homo sapiens, UniProt Q12873); fluorescence titration; peptide; pH 7.5, 25 °C, NaCl 150 mM, apparent): 33000 nM
PAKKSEELAAEAHNLSTLLENAIQDTVREQDQSFTALDWSWLQTE (IKBKB 701-745 C716S/V709A (Homo sapiens, UniProt O14920); sequence looked up)  Kd (IKBKG 2-419 C11A/C76A/C95A/C131A/C167A; competition with labelled peptide, fluorescence polarisation; pH 7.4): 280 nM
VGVK(Me3)KPL-NH2 (H3 peptide residues 33-39 G33V/H39L; K36me3, C-terminal amide; Me3 = trimethyl (on lysine, Kme3))  Kd (PHF1 25-87 (Homo sapiens, UniProt O43189-1); ITC; peptide; pH 7.5, 25 °C, NaCl 150 mM): 16300 nM
B2 (CPT1A 381-469 W452A)  Kd (Fabp1, Cy5 label (Mus musculus, UniProt P12710); FRET; 24 °C): 28 nM
B3 (LPHN3 N-terminal half, OLF-RBL)  Kd (FLRT3 LRR domain 29-386; ITC; pH 7.0, 25 °C, NaCl 150 mM): 34.2 ± 7.5 nM
B4 (IGFL1 24-110)  Kd (IGFLR1 23-159 (Homo sapiens, UniProt Q9H665); SPR; pH 7.4, 25 °C, NaCl 0.15 M): 1.2 nM
{FITC}-PAKKSEELVAEAHNLSTLLENAIQDTVREQDQSFTALDWSWLQTE (IKKβ 701-745 C716S (UniProt O14920); FITC label; FITC = O=C1OC2(c3ccc(O)cc3Oc3cc(O)ccc32)c2ccc(NC(=S)*)cc21; sequence looked up)  Kd (IKBKG C11A/C76A/C95A/C131A/C167A (Homo sapiens, UniProt Q9Y6K9); fluorescence polarisation; peptide; reduced, added: DTT 10 mM): 54 nM
secA (Escherichia coli, UniProt P10408)  Kd (phoA signal peptide residues 1-40 C insertion at 2, C-terminal amide, IANBD on Cys2 (Escherichia coli); fluorescence polarisation): 6200 ± 800 nM
B5 (Scn2a 1080-1203)  Kd (ANK2 1-957 (Homo sapiens, UniProt Q01484-2); SPR; pH 7.4, 25 °C, NaCl 150 mM): 1.2 nM
PAKKSEELVAEAHNLSTLLENAIQDTAREQDQSFTALDWSWLQTE (IKBKB 701-745 C716S/V727A (Homo sapiens, UniProt O14920); sequence looked up)  Kd (IKBKG 2-419 C11A/C76A/C95A/C131A/C167A; competition with labelled peptide, fluorescence polarisation; pH 7.4): 8.7 nM
MGDSILSQAEIDALLN (fliM residues 1-16 (Escherichia coli))  Kd (cheY 2-129 E89Y (Escherichia coli, UniProt P0AE67); fluorescence titration; peptide; pH 7.0, one-site model): 160000 nM
B6 (FLRT3 LRR domain 29-357)  Kd (ADGRL3 20-1447 Y249A/D251A/T252A/E279A/R308A (Homo sapiens, UniProt Q9HAR2); flow cytometry; HEK293; 100 nM, tetramerised, avidity, in cells): > 10000 nM
MR1/B2M empty, chimera (Homo sapiens/Bos taurus)  Kd (TAPBPL luminal domain C94S (Homo sapiens); SPR; pH 7.2, 25 °C, NaCl 50 mM): 95900 nM
B7 (RSPO2 22-144)  Kd (LGR4 fragment, terbium chelate label (Homo sapiens); TR-FRET; saturation binding, one-site fit, added: labeled B 10 nM): 120 nM
UGT1A9 (Homo sapiens, UniProt O60656)  Vmax (COc1cc2ccc(=O)oc2cc1O; steady-state kinetics; pH 7.4, 37 °C): 0.00106 µmol/min/mg
ART[Lys(Me3)]QTARKSTG (histone H3 peptide; K4me3; Lys(Me3) = C[N+](C)(C)CCCC[C@H](N)C(=O)O)  Kd (KDM4A 895-1011 (Homo sapiens, UniProt O75164); ITC; peptide): 1100 nM
FGF14 fragment, N-terminal adamantanecarbonyl, Glu tert-butyl ester, C-terminal ethyl ester (Homo sapiens)  Kd (SCN8A 1767-1912 (Homo sapiens, UniProt Q9UQD0-1); SPR): 67300 ± 7300 nM

Repeated from above:
UGT1A9 (Homo sapiens, UniProt O60656)  Vmax (COc1cc2ccc(=O)oc2cc1O; steady-state kinetics; pH 7.4, 37 °C): 0.00106 µmol/min/mg
B2 (CPT1A 381-469 W452A)  Kd (Fabp1, Cy5 label (Mus musculus, UniProt P12710); FRET; 24 °C): 28 nM
VGVK(Me3)KPL-NH2 (H3 peptide residues 33-39 G33V/H39L; K36me3, C-terminal amide; Me3 = trimethyl (on lysine, Kme3))  Kd (PHF1 25-87 (Homo sapiens, UniProt O43189-1); ITC; peptide; pH 7.5, 25 °C, NaCl 150 mM): 16300 nM
